Measured values of several laboratories.
Protocols differ between the studies behind these lines. Numbers after ± are the reported error. Values after ≈ are worked out from the molar mass of the structure shown.

Substance | test | system | setting | scale | quantity | result
CNc1cc(-c2csc(N(C)C(=O)c3ccc([18F])cc3)n2)ncn1 |  | formulation for injection | room temperature |  | radiochemical stability duration | ≥ 4 h
CCOc1ccc(Cc2cc([C@]34OC[C@](CO)(O3)[C@@H](O)[C@H](O)[C@H]4O)ccc2Cl)cc1 | equilibrium dialysis | human, type 2 diabetes, moderate renal impairment, plasma | oral, 15 mg, 6 h |  | fu | 0.038
CCN1CC(=O)NC(CC(C)C)C(=O)N(C)C(C)C(=O)NC(CC(C)C)C(=O)N2CCCC2C(=O)N(CC2CCCCC2)CC(=O)NC(CC(C)C)C(=O)N(C)C(C)C(=O)NC(Cc2ccccc2)C(=O)N2CCCC2C1=O (centres unmarked) |  | mouse | oral, dose not given, added: GF120918 pretreatment |  | oral bioavailability | 7%
CCCCC1(CCCC)CN(c2ccccc2)c2cc(SC)c(OCC(=O)N[C@@H](C(=O)NCC(=O)O)c3ccccc3)cc2S(=O)(=O)C1 |  | human, plasma | oral, 15 mg once daily, day 14, geometric mean |  | AUC(0-t) | 1.97 ng·h/mL
C[C@]12CC[C@@H]3c4ccc(O)cc4CC[C@H]3[C@@H]1C[C@@H](O)[C@@H]2O | GC-MS | breast cancer women on NSAI, serum | vaginal, 0.03 mg, 2 h, day 0 |  | maximum serum concentration | 0.168 ng/mL
CCOc1ncc(C)c2c1[C@H](c1ccc(C#N)cc1OC)C(C(N)=O)=C(C)N2 |  | human | oral |  | t1/2 alpha | 2.7 h
O=C(CCCN1CCCN(c2ccc(Cl)cc2)CC1)c1ccc(F)cc1 |  | male Sprague-Dawley rats, plasma | intravenous, 1.7 mg/kg, added: HAL 0.7 mg/kg plus BCT 0.1 mg/kg |  | clearance | 49.5 ± 11.2 mL/min/kg
COc1ccc2nc([S@@+]([O-])Cc3ncc(C)c(OC)c3C)[nH]c2c1 |  | human healthy | 40 mg, throat irritation |  | adverse events | 0%
C[C@@H]1CCN(C(=O)CC#N)C[C@@H]1N(C)c1ncnc2[nH]ccc12 |  | rat, DSS colitis model | intravenous infusion, 10 mg/kg, 24 h | relative to: dose | amount remaining in gastrointestinal tract | 0.328 ± 0.438%
C=C(C)[C@@H]1CC[C@]2(NCCN3CCS(=O)(=O)CC3)CC[C@]3(C)[C@H](CC[C@@H]4[C@@]5(C)CC=C(C6=CC[C@@](CF)(C(=O)O)CC6)C(C)(C)[C@@H]5CC[C@]43C)[C@@H]12 |  | healthy human | oral, 200 mg, single ascending dose, geometric mean |  | t1/2 | 22.6 h
Oc1ncnc2[nH]ncc12 |  | healthy human volunteers | oral, 300 mg once daily, 7 days, added: rosuvastatin 10 mg | relative to: placebo | rosuvastatin pharmacokinetics | no effect
CCCC[C@@H]1NC(=O)[C@@H](NC(=O)[C@H](CCC(=O)O)NC(=O)CNC(=O)CN2CCN(CC(=O)O)CCN(CC(=O)O)CCN(CC(=O)O)CC2)CCCCNC(=O)C[C@@H](C(N)=O)NC(=O)[C@H](C(C)C)NC(=O)[C@@H]2CCCN2C(=O)[C@H](CCCNC(=N)N)NC(=O)CNC(=O)[C@H](Cc2c[nH]c3ccccc23)NC(=O)[C@H](CCCNC(=N)N)NC(=O)[C@@H](Cc2ccccc2)NC(=O)[C@H](Cc2c[nH]cn2)NC(=O)[C@H](CCC(=O)O)NC1=O [indium-111 labelled] |  | C57 mice, B16/F10 lung metastatic melanoma, heart | intravenous, 0.037 MBq, 4 h |  | tissue uptake | 0.03 ± 0.01 %ID/g
QTAEELLEV | far-UV CD | peptide, Tris-HCl buffer, 100 mM NaCl | pH 8.0, room temperature |  | alpha-helix content | 83.6%
CC(Cl)(Cl)C(=O)OC1(N=O)CCOCC1 |  | PBS, 3% DMF | pH 7.4, added: porcine liver esterase | relative to: with esterase over buffer | decomposition rate fold increase | 5 fold
Cc1ccnc2c1NC(=O)c1cccnc1N2C1CC1 |  | olive baboon (Papio anubis), non-pregnant, serum | oral, 800 mg, tablet, single dose |  | AUC(0-8 h) | 5110 ± 3630 ng·h/mL
O=C1N=C(N2CCOCC2)CN1c1ccc(Cl)cc1 |  | beagle dog, male | oral, 30 mg/kg, tablets, fed |  | terminal half-life | 1.92 h
CC(C)NC[C@@H](C(=O)N1CCN(c2ncnc3c2[C@H](C)C[C@H]3O)CC1)c1ccc(Cl)cc1 |  | human, Moderate hepatic function, plasma | oral, 100 mg single dose, NCI classification, arithmetic mean |  | t1/2 | 76.6 h
C[C@H](N)C(=O)N[C@@H](Cc1ccccc1)C(=O)N[C@@H](C)C(=O)O |  | water | room temperature, pH near terminal pKa |  | water solubility | 670 mM (≈ 206 mg/mL)
O=C(O)c1ccc([18F])nc1 | PET imaging | mouse, intracranial BT-12 glioblastoma xenograft | iv, dose not given |  | tumour SUV | 0.9 ± 0.1
O=C(O)[C@H](c1ccccc1Cl)N1CCc2sccc2C1 | HPLC-MS/MS | feline EDTA plasma | 48 h, -20 °C, storage stability |  | deviation from nominal | -6%
Cc1ccc(NC(=O)c2ccc(CN3CCN(C)CC3)cc2)cc1Nc1nccc(-c2cncc(-c3oncc3C)c2)n1 |  | older healthy human adults, plasma | oral, 75.0 mg single dose, fed, mean |  | half-life | 28.5 h
O=c1cc(-c2ccc(O)cc2)oc2cc(O)cc(O)c12 |  | phosphate buffer | pH 6.8, added from DMSO stock |  | precipitation concentration | > 1000 µM
Cn1ncc(Cl)c1-c1cc(C(=O)N[C@H](CN)Cc2ccc(F)c(F)c2)oc1Cl |  | human patients, plasma | oral, 10 mg once daily, day 8, repeat dose |  | effective half-life | 42.7 to 48.1 h
CCCCOCCOc1ccc(-c2ccc3c(c2)/C=C(/C(=O)Nc2ccc([S@@+]([O-])Cc4cncn4CCC)cc2)CCCN3CC(C)C)cc1 |  | human, controls matched to moderate impairment | oral, 150 mg |  | effective half-life | 15 h

Substance | test | system | setting | scale | quantity | result
Cn1c(-c2ccc(C(N)=O)cc2F)nnc1C(C)(C)Oc1c(F)cc(Cl)cc1F |  | young Japanese subjects, plasma | oral, 10 mg single dose, day 1 |  | AUC(0-inf) median | 1310 ng·h/mL
O=C(O)C(F)(F)c1cc(F)ccc1Nc1c(Cl)cccc1Cl | glucuronidation | human liver microsomes | 30 min, added: UDPGA |  | remaining compound | 110 ± 6.4%
[2H]C([2H])([2H])Oc1cc2c(cc1OC([2H])([2H])[2H])C1CC(=O)C(CC(C)C)CN1CC2 (centres unmarked) | measured: deuterated α-HTBZ | healthy human volunteers, plasma | oral, 6 mg single dose, standard meal |  | dose-normalized AUC(0-t) | 14.5 ng·h/mL
O=C(Nc1nc2cccc(-c3ccc(CN4CCS(=O)(=O)CC4)cc3)n2n1)C1CC1 |  | human male | oral, 25 mg twice daily, steady state, mean |  | terminal half-life | 3.82 h
Cc1cc(-c2cc(OC(=O)c3ccccc3)ccc2Cl)cc2nnc(Nc3ccc(OCCN4CCCC4)cc3)nc12 |  | Long Evans rat, plasma | topical, 1% |  | plasma concentration at 24 h | not detected
Cc1cc(-c2ncc(CC(=O)Nc3ccc(-c4cnccn4)cn3)cc2C)ccn1 |  | patients, plasma | oral, dose not given, threshold for dysgeusia grade ≥2 |  | steady-state AUC(0-24h) | < 762 ng·h/mL
CNCc1ccc(-c2cc(-c3nc(-c4ccc(S(=O)(=O)C(C)C)cc4)cnc3N)on2)cc1 |  | mouse BALB/c female, plasma | intravenous, 6.0 mg/kg, from AUC(0-inf) |  | CL | 40.7 mL/min/kg
CCCOc1ccc([C@H]2CNC(=O)N2c2ccc3[nH]cnc3c2)cc1 |  | human volunteers fasted, plasma | oral solution, 100 mg single dose, day 1, geometric mean |  | effective half-life | 2.16 h
des-acyl ghrelin (human) |  | mouse, Ghsr knockout, hippocampus | intravenous, 10 min |  | brain/serum ratio | 8.25 µL/g
CC(C)(O/N=C(\C(=O)N[C@H]1CN2CC(C(=O)NCCN3C(=O)c4cc(O)c(O)cc4C3=O)=C(C(=O)O)N2C1=O)c1nc(N)sc1Cl)C(=O)O |  | CD-1 mouse, plasma | subcutaneous, 50 mg/kg, 8 h |  | plasma concentration | 1000 ng/mL
CCc1cn([C@@H]2O[C@H](CO)[C@@H](O)[C@H]2O)c2ncnc(C)c12 |  | mouse liver microsomes | 0 min, added: NADPH |  | remaining parent compound | 100%
CNCc1ccc(-c2[nH]c3cc(F)cc4c3c2CCNC4=O)cc1 |  | human patients, plasma | oral, 360 mg twice daily, day 15, steady state, median |  | Tmax | 3.3 h
acyl ghrelin (human) |  | mouse, Ghsr knockout, striatum | intravenous, 10 min |  | brain/serum ratio | 4.3 µL/g
COc1ccccc1C(=O)CSc1nc(C)cc(C)c1C#N | metabolic stability | human, liver microsomes | 0.5 µM, pH 7.4 |  | microsomal CLint | 2030 µL/min/mg
CC(C)C[C@H](N)C(=O)N1CCC[C@@H](NCC(=O)N2CCC[C@H]2C(N)=O)C1 | capillary electrophoresis-MS | water |  |  | pKa1 | 5.13
Cn1cnc2c(F)c(Nc3ccc(Br)cc3Cl)c(C(=O)NOCCO)cc21 | population pharmacokinetic model | human, plasma | oral, dose not given |  | central volume of distribution/F | 31.7 L
CON |  | human, whole blood on ice | 120 min before centrifugation |  | blood concentration | 10.5 ng/mL
N=C(N)c1ccc(CNC(=O)[C@@H]2CCN2C(=O)[C@H](NCC(=O)O)C2CCCCC2)cc1 |  | Wistar rats male, plasma | intravenous, 0.03 mg/kg, 15 min, 10 min after TF |  | plasma concentration | 45.9 ± 5.7 ng/mL
CCCC[C@H](NC(=O)CN1CCN(CC(=O)O)CCN(CC(=O)O)CCN(CC(=O)O)CC1)C(=O)N[C@H]1CC(=O)NCCCC[C@@H](C(N)=O)NC(=O)[C@H](Cc2c[nH]c3ccccc23)NC(=O)[C@H](CCCNC(=N)N)NC(=O)[C@@H](Cc2ccccc2)NC(=O)[C@H](Cc2c[nH]cn2)NC1=O [indium-111 labelled] |  | B16/F1 melanoma C57 mice, liver | 4 h | relative to: 99mTc(CO)3-pz-βAla-Nle-cyclo[Asp-His-D-Phe-Arg-Trp-Lys]-NH2 | liver uptake | 7.5%
CCCC[C@H](NC(C)=O)C(=O)N[C@H]1CCC(=O)NC[C@@H](C(=O)N[C@@H](Cc2c[nH]c3ccccc23)C(N)=O)NC(=O)[C@H](CCCNC(=N)N)NC(=O)[C@@H](Cc2ccccc2)NC(=O)[C@H](Cc2c[nH]cn2)NC1=O |  | beagle dog, female, plasma | subcutaneous, 1.5 mg/kg daily, day 1 |  | AUC(0-last) | 271 ng·h/mL
Cc1cc(Nc2ncc(Cl)c(Nc3ccccc3S(=O)(=O)C(C)C)n2)c(OC(C)C)cc1C1CCNCC1 | measured: total drug | patients, plasma | oral, 750 or 450 mg/day, 23.7 h, geometric mean |  | Css,min | 881 nM
liraglutide | equilibrium dialysis | human plasma 5% diluted | 10 nM, 4 to 5 h, pH 7.4, 37 °C, inner-outer ratio 100:1 |  | plasma protein binding | 99.5%
COC(=O)c1ccc2c(c1)NC(=O)/C2=C(\Nc1ccc(N(C)C(=O)CN2CCN(C)CC2)cc1)c1ccccc1 |  | human moderate liver impairment, plasma | oral, 150 mg twice daily, geometric mean |  | AUC(tau) steady state | 970 ng·h/mL

For quick reference, copied from above:
Substance | test | system | setting | scale | quantity | result
O=C1N=C(N2CCOCC2)CN1c1ccc(Cl)cc1 |  | beagle dog, male | oral, 30 mg/kg, tablets, fed |  | terminal half-life | 1.92 h
CC(C)NC[C@@H](C(=O)N1CCN(c2ncnc3c2[C@H](C)C[C@H]3O)CC1)c1ccc(Cl)cc1 |  | human, Moderate hepatic function, plasma | oral, 100 mg single dose, NCI classification, arithmetic mean |  | t1/2 | 76.6 h
C[C@H](N)C(=O)N[C@@H](Cc1ccccc1)C(=O)N[C@@H](C)C(=O)O |  | water | room temperature, pH near terminal pKa |  | water solubility | 670 mM (≈ 206 mg/mL)
O=C(O)c1ccc([18F])nc1 | PET imaging | mouse, intracranial BT-12 glioblastoma xenograft | iv, dose not given |  | tumour SUV | 0.9 ± 0.1
